Measurements collected from several papers.
Each line is one published result; not all experiments were run side by side. Values joined by “and” are separate records of one study, mostly repeats; a detail may differ. Numbers after ± are the reported error.
lasR: Transcriptional activator protein LasR (lasR, Pseudomonas aeruginosa, UniProt P25084)
Uncharacterized hydrolase SAUSA300_2518: Uncharacterized hydrolase SAUSA300_2518 (Staphylococcus aureus, UniProt Q2FDS6)
Oprm1: Mu-type opioid receptor (Oprm1, Rattus norvegicus, UniProt P33535)
KEAP1: Kelch-like ECH-associated protein 1 (KEAP1, Homo sapiens, UniProt Q14145)
sdiA: Regulatory protein SdiA (sdiA, Escherichia coli, UniProt P07026)

SMILES	tested on	assay	system	setting	how to read	measurement	value
CC[C@H](C)[C@H](NC(=O)[C@H](CCCNC(=N)N)NC(=O)[C@H](CCCNC(=N)N)NC(=O)[C@H](CC(C)C)NC(=O)[C@H](Cc1ccccc1)NC(=O)CNC(=O)CNC(=O)[C@@H](N)Cc1ccc(O)cc1)C(=O)N[C@@H](CCCNC(=N)N)C(=O)N1CCC[C@H]1C(=O)N[C@@H](CCCCN)C(=O)N[C@@H](CC(C)C)C(=O)N[C@@H](CCCCN)C(=O)O	GPR139 (Homo sapiens, UniProt Q6DWJ6)	Gαi1 activation, agonist, BRET	HEK293T/17	40 µM		Emax	68.2% and 64.9%
CC(C)(C)C(=O)OCOP(=O)(OCOC(=O)C(C)(C)C)C1CCCN(O)C1=O (centres unmarked)	DU-145					GI50	831 nM
CCCCCCCCCCCCn1nnc(CC(=O)O)n1	lasR	reporter gene, agonist	Escherichia coli JLD271	10 µM, pSC11 and pJN105L plasmids	baseline: OdDHL at same concentration	agonist activity	1%
O=C(Nc1ccncc1)c1ccccc1OS(=O)(=O)F	Uncharacterized hydrolase SAUSA300_2518	enzyme activity, inhibitor, fluorogenic substrate		10 µM		remaining activity	44.5% and 41%
O=C(N[C@@H]1c2ccccc2C[C@H]1N1CCCC1)c1ccc(-c2ccnc3[nH]ccc23)nc1	PRKG2 (Homo sapiens, UniProt Q13237)	binding, competition with immobilised ligand		3 µM		remaining binding	9.5%
[CH3][Ti+2][O]C(=O)c1ccc([S][Au][PH](c2ccccc2)(c2ccccc2)c2ccccc2)cc1.c1cc[cH-]c1.c1cc[cH-]c1	ARAF (Homo sapiens, UniProt P10398)	kinase activity, HotSpot kinase		1 µM, together with: ATP 10 µM		remaining activity	98.8% and 98.6%
O=C1NC(=O)c2c1c1cc(F)c[n+]3c1c1c2c2cc(O)ccc2[n]1[Ru-4]312([N]=C=S)[S+]3CC[S+]1CC[S+]2CC3 (centres unmarked)	FGFR4 (Homo sapiens, UniProt P22455)	enzyme activity		100 nM, human enzyme, together with: 10 µM ATP	baseline: untreated	remaining activity	86%
O=C1NC2(CC2)COc2ncc(F)cc2[C@H]2COCCN2c2ccn3ncc1c3n2			Sprague-Dawley rat, female, adrenals	oral, 5 mg/kg/day, 4 weeks, end of treatment		organ-to-body weight ratio	0.021 ± 0.003%
CC(=O)N[C@@H](CCC(N)=O)C(=O)N[C@@H](CC1CCCCC1)C(=O)N[C@@H](CNC(=O)CCl)C(=O)N[C@@H](CC(C)C)C(=O)N[C@@H](Cc1ccccc1)C(=O)O	Beta sliding clamp (Escherichia coli, UniProt P0A988, H175G)	isothermal titration calorimetry		25 °C		ΔH	-9.6 kcal/mol
N=C(N)NCc1cn([C@@H]2[C@@H](OCCCl)O[C@H](CO)[C@@H](O)[C@@H]2O)nn1	C-type lectin domain family 4 member M, extracellular domain (CLEC4M, Homo sapiens, UniProt Q9H2X3)	isothermal titration calorimetry		concentration not given		binding stoichiometry	1.09 and 1.13 and 1.1
CCCC[C@H]1CNCCN1C[C@@H]1CCCN1C[C@H](CC1CCCCC1)N1CCN(CCC23CC4CC(CC(C4)C2)C3)[C@H]([C@@H](C)O)C1	Oprm1	radioligand binding	rat brain membranes	500 nM, pH 7.5, 25 °C, together with: 0.87 nM [3H]DAMGO		remaining binding	103 ± 6.8%
CC(C)CC(O)(CC(C)C)c1cn(C(=O)N2CCCC2)nn1	Dipeptidyl peptidase 8 (Dpp8, Mus musculus, UniProt Q80YA7)	probe labelling, inhibitor, competitive ABPP-SILAC, measured: Dpp8	mouse T cells	concentration not given, 4 h, in situ, protein level	baseline: treated over DMSO, lower = more inhibition	SILAC ratio	1.33
CC(C)[C@@H]1NC(=O)[C@H](CCC(=O)O)NC(=O)CNC(=O)[C@H]([C@@H](C)O)NC(=O)[C@H](CCC(=O)O)NC(=O)[C@H](CCC(=O)O)NC(=O)[C@H](CC(=O)O)NC(=O)[C@H](C(C)C)NC(=O)[C@H]([C@@H](C)O)NC(=O)CNC(=O)[C@H](CC(=O)O)NC(=O)[C@H](CC(N)=O)NC(=O)[C@H](Cc2ccc(O)cc2)NC1=O	KEAP1	Keap1-Nrf2 binding, inhibitor, competitive FP		100 µM, 30 min, together with: Nrf2 peptide probe	lower = stronger inhibition	fluorescence polarization	0.234 a.u. and 0.16 a.u.
CC[C@H](C)[C@@H]([C@@H](CC(=O)N1CCC[C@H]1[C@H](OC)[C@@H](C)C(=O)N[C@H](C)[C@@H](O)c1ccccc1)OC)N(C)C(=O)[C@@H](NC(=O)[C@H](C(C)C)N(C)C(=O)OCc1ccc(NC(=O)[C@H](CCCNC(N)=O)NC(=O)[C@@H](NC(=O)CCCCCN2C(=O)CC(SC[C@H](NC(=O)[C@H](CC(=O)O)NC(=O)[C@H](Cc3ccc(O)cc3)NC(=O)[C@H](Cc3c[nH]c4ccccc34)NC(=O)[C@@H](N)CCCNC(=N)N)C(=O)O)C2=O)C(C)C)cc1)C(C)C (some centres unmarked)			C57BL/6 mouse, healthy, lung	intraperitoneal, 2.5 mg/kg, 6 h		concentration	not detected
CN(C)CCCSC(=S)N1CCN(C(=O)/C=C/c2coc3ccccc3c2=O)CC1	Nucleoprotein (N, Tomato spotted wilt virus, UniProt P25999, Y184A)	binding, microscale thermophoresis		62.5 µM	dose series	MST response	845 a.u.
O=C(Cc1ccc(Br)cc1)N[C@H]1CCOC1=O	lasR	reporter gene, agonist	Pseudomonas aeruginosa PAO-JP2	100 µM, plasI-LVAgfp reporter	baseline: OdDHL at same concentration	agonist activity	-1%
Cc1cc(C)cc(COc2cc3c(cc2OCc2cc(C)cc(C)c2)C2CC(O)(Cc4cn(CCOCCOCCOCCNc5ccc6c(c5)C(=O)N(C5CCC(=O)NC5=O)C6=O)nn4)CC(C)N2CC3)c1 (racemic)	Rab GDP dissociation inhibitor beta (Homo sapiens, UniProt P50395)	degrader, Western blot	PC-3	2 µM, 24 h		degradation	8%
CCOC(=O)[C@@H]1Cc2c(cc([N+](=O)[O-])cc2[N+](=O)[O-])[C@H](O)[C@]12C(=O)Nc1ccc(Br)cc12	FLT3 (Homo sapiens, UniProt P36888)	binding, competition with immobilised ligand		0.1 µM		remaining binding	60%

SMILES	tested on	assay	system	setting	how to read	measurement	value
CC(C)[C@H]1NC(=O)C[C@H]2/C=C/CCSSC[C@@H](NC1=O)C(=O)N[C@H](Cc1cccc3ccccc13)C(=O)NCC(=O)O2	STK26 (Homo sapiens, UniProt Q9P289)	enzyme activity, inhibitor		10 µM		inhibition	7%
O=C(CCc1ccc(C(F)(F)F)cc1)N[C@H]1CCOC1=O	lasR	reporter gene, agonist	Escherichia coli JLD271	10 µM, pSC11 and pJN105L plasmids	baseline: OdDHL at same concentration	agonist activity	63%
C#CCCCCOc1ccc2c(c1)CCCN2C(=O)CCl	NCEH1 (Homo sapiens, UniProt Q6PIU2)	mass spectrometry profiling	Ramos cell lysate	100 µM over 10 µM, UniProt Q6PIU2	baseline: high over low concentration	reactivity ratio	0.844
COCC1CCCCN1C(=O)n1cc(C(O)(c2ccccc2)c2ccccc2)nn1 (centres unmarked)	Pnpla8 (Mus musculus, UniProt Q8K1N1)	probe labelling, inhibitor, competitive ABPP-SILAC	mouse T cells	concentration not given, 4 h, protein level	baseline: treated over DMSO cells, lower = stronger inhibition	SILAC activity ratio	1.29
CCCCCC(=O)CC(=O)N[C@H]1CCOC1=O	lasR	plasI-LVAgfp reporter, agonist			baseline: pump-active over pump-mutant	EC50 ratio	> 7.7
CCCCC1CNCCN1CC1CCCN1CC(Cc1ccc2ccccc2c1)N1CCN(CCCC2CCCC2)C(C(C)O)C1 (centres unmarked)	Oprm1	radioligand binding	rat brain membranes	500 nM, pH 7.5, 25 °C, together with: 0.87 nM [3H]DAMGO		remaining binding	103 ± 5.78%
O=C(Cc1cccc(Cl)c1)N[C@H]1CCOC1=O	sdiA					Emax	108%
N[C@H](C(=O)N1CCCC1)C1CCN(c2nccc3c(-c4ncc(Cl)cc4Cl)cccc23)CC1	PADI2 (Homo sapiens, UniProt Q9Y2J8)	enzyme activity		0.03932 µM, high-affinity site, together with: Ca2+ 1.5 mM		kcat	1.61 s⁻¹ and 1.62 s⁻¹
CC(C)C[C@@H]1NC(=O)[C@H](C(C)C)NC(=O)[C@H](CCC(=O)O)NC(=O)CNC(=O)[C@H]([C@@H](C)O)NC(=O)[C@H](CCC(=O)O)NC(=O)[C@H](CCC(=O)O)NC(=O)[C@H](CC(=O)O)NC(=O)[C@H](C(C)C)NC(=O)[C@H]([C@@H](C)O)NC(=O)CNC(=O)[C@H](CC(=O)O)NC(=O)[C@@H]2CCCN2C1=O	KEAP1	Keap1-Nrf2 binding, inhibitor, competitive FP		1.562 µM, 30 min, together with: Nrf2 peptide probe	lower = stronger inhibition	fluorescence polarization	0.048 a.u. and 0.198 a.u.
O=C(Cc1ccc(Cl)cc1)N[C@H]1CCOC1=O	sdiA					Emax	88.2%
C[C@H](NCc1ccc(-c2ccc(C(F)(F)F)cc2)cc1)C(N)=O	PIM1 (Homo sapiens, UniProt P11309)	cell-free assay, competition with immobilised ligand		1 µM		inhibition	0%
COc1ccccc1-c1n[nH]c2nc(N[C@H]3CC[C@H](NS(=O)(=O)CC(C)C)CC3)ncc12	cyclin 9 (Leishmania donovani, UniProt A0A2D1QVA3)	competitor, bead pull-down competition	Leishmania donovani extract	0.08 µM	baseline: vehicle	remaining binding	9%
COc1cccc(CC(=O)N[C@H]2CCOC2=O)c1	sdiA					Emax	112%
CS(C)(=O)=Nc1ccc(-c2ccc(-c3nc4cc(O[C@@H]5CO[C@H]6[C@@H]5OC[C@H]6O)[nH]c4cc3F)cc2)cc1	FGFR2 (Homo sapiens, UniProt P21802, N549H)	enzyme activity, inhibitor		10 µM		inhibition	9%
CN1CCCN(C(=O)c2ccc(S(=O)(=O)F)cc2)c2ccccc21	Uncharacterized hydrolase SAUSA300_2518	enzyme activity, inhibitor, fluorogenic substrate		10 µM		remaining activity	103% and 111%
CN(/N=C/c1ccccc1C(=O)O)c1nc(-c2ccccc2Cl)cs1	HIPK2 (Homo sapiens, UniProt Q9H2X6)	enzyme activity, inhibitor		1 µM		inhibition	-10.2%
CN(C)[C@H]1C[C@@]23CC[C@@]4(O2)C(=CC[C@]2(C)[C@@H](c5ccc6ccncc6c5)CC[C@H]24)C=C3[C@@H](O)[C@@H]1O	MAP2K7 (Homo sapiens, UniProt O14733)	ATP probe labelling, inhibitor, KiNativ profiling		1 µM		inhibition	6.4%

For quick reference, copied from above:
SMILES	tested on	assay	system	setting	how to read	measurement	value
COCC1CCCCN1C(=O)n1cc(C(O)(c2ccccc2)c2ccccc2)nn1 (centres unmarked)	Pnpla8 (Mus musculus, UniProt Q8K1N1)	probe labelling, inhibitor, competitive ABPP-SILAC	mouse T cells	concentration not given, 4 h, protein level	baseline: treated over DMSO cells, lower = stronger inhibition	SILAC activity ratio	1.29
CCCCCC(=O)CC(=O)N[C@H]1CCOC1=O	lasR	plasI-LVAgfp reporter, agonist			baseline: pump-active over pump-mutant	EC50 ratio	> 7.7
